# Assay results collected from several papers.
# Lines come from different studies, so protocols differ.
# Method: steady-state kinetics
# B1: enzyme D254A (Thermococcus kodakarensis, UniProt Q5JID5); chain MLYVEILGNLPEMARDEVKAMLELGGGEIIGQDYLFLKVDAGEKAFPFLDRLGLAHEYGLLLVEADSVEELLQKAGEVEWPIKGAFKVDTETMANCRHDVLDLPRKLGAVIHAQGFRVNLSKPDTVVRVYCGERLYAGIRLRYFDPKDFEKRKAHHRPFFRPISLHPRVSRALVNLTKATREILDPFMGAGGILIEAGLLGLRVYGVDIRPEMVEGAETNLKHYGVRDYTLKLGDATRLEDLFPDKKFEAVATAPPYGTAATLAGRKRDELYRKALRSIYNVLEDGGRLAIAFPTDFNGKAEAEAVGFRTLGRYYQRVHKSLERYFYVFEK
# B2: PRODH2 157-515 (Homo sapiens, UniProt Q9UF12); chain YGQFVAGETAEEVKGCVQQLRTLSLRPLLAVPTEEEPDSAAKSGEAWYEGNLGAMLRCVDLSRGLLEPPSLAEASLMQLKVTALTSTRLCKELASWVRRPGASLELSPERLAEAMDSGQNLQVSCLNAEQNQHLRASLSRLHRVAQYARAQHVRLLVDAEYTSLNPALSLLVAALAVRWNSPGEGGPWVWNTYQACLKDTFERLGRDAEAAHRAGLAFGVKLVRGAYLDKERAVAQLHGMEDPTQPDYEATSQSYSRCLELMLTHVARHGPMCHLMVASHNEESVRQATKRMWELGIPLDGTVCFGQLLGMCDHVSLALGQAGYVVYKSIPYGSLEEVIPYLIRRAQENRSVLQGARRE
# B3: enzyme (Tanacetum cinerariifolium, UniProt H6U1I8); chain SQQAAALFIFGDSVFDPGNNNHINTHVNFKANFWPYGQSYFSSPTGRFSDGRIIPDFIAEYASLPIIPAYLEPNNDFTHGANFASAGAGALIASHAGLAVGLQTQLRYFGDLVDHYRQNLGDIKSRQLLSDAVYLFSCGGNDYQSPYYPYTQEQYVDIVIGNMTNVIKGIYEKGGRKFGVVNVPLIGCWPGMRAKQPGNTCNTEVDELTRLHNQAFAKRLEQLEKQLEGFVYAKFDLSTAILNRMKNPSKYGFKEGESACCGSGPFGGNYDCGRIKEFGLCDNATEYFFFDPFHPNELASRQFAEMFWDGDSMVTQPYNLKALFEGKPSTKYLPNDEL
# B4: Paox H64Q (Mus musculus, UniProt Q8C0L6); chain MAFPGPRVLVVGSGIAGLGAAQKLCSHRAAPHLRVLEATASAGGRIRSERCFGGVVELGAHWIQGPSQDNPVFQLAAEFGLLGEKELSEENQLVDTGGHVALPSMIWSSSGTSVSLELMTEMARLFYGLIERTREFLNESETPMASVGEFLKKEISQQVASWTEDDEDTRKRKLAILNTFFNIECCVSGTHSMDLVALAPFGEYTVLPGLDCILAGGYQGLTDRILASLPKDTVAFDKPVKTIHWNGSFQEAAFPGETFPVLVECEDGARLPAHHVIVTVPLGFLKEHQDTFFEPPLPAKKAEAIKKLGFGTNNKIFLEFEEPFWEPDCQFIQVVWEDTSPLQDTALSLQDTWFKKLIGFLVQPSFESSHVLCGFIAGLESEFMETLSDEEVLLSLTQVLRRVTGNPQLPAAKSVRRSQWHSAPYTRGSYSYVAVGSTGDDLDLMAQPLPEDGTGTQLQVLFAGEATHRTFYSTTHGALLSGWREADRLVSLWDSQVEQSRPRL
# B5: YdjH (Escherichia coli, UniProt P77493); chain MDNLDVICIGAAIVDIPLQPVSKNIFDVDSYPLERIAMTTGGDAINEATIISRLGHRTALMSRIGKDAAGQFILDHCRKENIDIQSLKQDVSIDTSINVGLVTEDGERTFVTNRNGSLWKLNIDDVDFARFSQAKLLSLASIFNSPLLDGKALTEIFTQAKARQMIICADMIKPRLNETLDDICEALSYVDYLFPNFAEAKLLTGKETLDEIADCFLACGVKTVVIKTGKDGCFIKRGDMTMKVPAVAGITAIDTIGAGDNFASGFIAALLEGKNLRECARFANATAAISVLSVGATTGVKNRKLVEQLLEEYEG
# B6: enzyme (Vitis vinifera, UniProt F6HSW4); chain MAVDSGLSSPLGPPACEKDAKALQFIEEMTRNPDQVQEKILAEILSQNGETEYLQRFKLAGATDRDTFKSKVPVVTYEDLQPDIQRIANGDRSPILSSHPISEFLTSSGTSAGERKLMPTIHEEWDRRQKLYSLLMPVMNLYVPGLDKGKGLYFLFVKSETKTPSGLVARPVLTGYYRSEHFKKRPYDPYNVYTSPDEAILCVDSFQSMYAQMLCGLLMHKEVLRVGAVFASGLLRAIRFLQVHWQQLAHDISTGILNPKITDPSVREGLAGILKPSQELADFIIQECSGGNWERIITRIWPNTKYLDVIVTGAMAQYIPTLDYFSGGIPLACTMYASSECYFGLNLKPMSKPSEVSYTIMPNMGYFEFLPHDPSAPPLSRDSPPRLVDLADVEVGKEYELVITTYAGLCRYRVGDILQVTGFHNSAPQFQFIRRKNVLLSIDSDKTDEAELQKAVENASLLLREFNTSVVEYTSFADTKTIPGHYVIYWELLVKDPSNSPTDTVLKQCCLAMEESLNTVYRQGRVADNSIGPLEIRVVKSGTFEELMDYAISRGASINQYKVPRCVNFTPIMELLDSRVLSTYFSPAAPHWTPERRRTD
# B7: YeiR (Escherichia coli, UniProt P33030); chain MTRTNLITGFLGSGKTTSILHLLAHKDPNEKWAVLVNEFGEVGIDGALLADSGALLKEIPGGCMCCVNGLPMQVGLNTLLRQGKPDRLLIEPTGLGHPKQILDLLTAPVYEPWIDLRATLCILDPRLLLDEKSASNENFRDQLAAADIIVANKSDRTTPESEQALQRWWQQNGGDRQLIHSEHGKVDGHLLDLPRRNLAELPASAAHSHQHVVKKGLAALSLPEHQRWRRSLNSGQGYQACGWIFDADTVFDTIGILEWARLAPVERVKGVLRIPEGLVRINRQGDDLHIETQNVAPPDSRIELISSSEADWNALQSALLKLRLATTA
# Sequence of UniProt J9VYP5 (whole entry, looked up): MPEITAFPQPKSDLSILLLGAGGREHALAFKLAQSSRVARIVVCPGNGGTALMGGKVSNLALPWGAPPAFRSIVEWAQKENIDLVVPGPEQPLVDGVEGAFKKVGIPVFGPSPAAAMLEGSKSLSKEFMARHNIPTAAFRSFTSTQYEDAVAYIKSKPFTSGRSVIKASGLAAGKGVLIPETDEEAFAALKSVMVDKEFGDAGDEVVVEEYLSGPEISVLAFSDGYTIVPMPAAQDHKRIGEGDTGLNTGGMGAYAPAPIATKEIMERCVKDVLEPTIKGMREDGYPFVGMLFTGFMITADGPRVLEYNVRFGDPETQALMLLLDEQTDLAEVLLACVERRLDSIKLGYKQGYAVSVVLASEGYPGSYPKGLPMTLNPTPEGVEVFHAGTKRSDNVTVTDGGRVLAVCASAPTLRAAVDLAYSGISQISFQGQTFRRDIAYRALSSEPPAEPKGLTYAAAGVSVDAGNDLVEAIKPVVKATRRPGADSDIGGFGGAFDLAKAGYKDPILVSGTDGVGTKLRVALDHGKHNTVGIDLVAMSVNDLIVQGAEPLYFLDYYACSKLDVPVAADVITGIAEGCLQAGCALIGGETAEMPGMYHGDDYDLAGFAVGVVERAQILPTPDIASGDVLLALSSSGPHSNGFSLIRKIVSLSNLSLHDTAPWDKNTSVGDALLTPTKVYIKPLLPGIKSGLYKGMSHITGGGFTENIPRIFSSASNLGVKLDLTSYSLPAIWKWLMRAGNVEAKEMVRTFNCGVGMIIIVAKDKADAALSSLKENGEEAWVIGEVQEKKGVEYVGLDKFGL
# Sequence of UniProt Q96IU4 (whole entry, looked up): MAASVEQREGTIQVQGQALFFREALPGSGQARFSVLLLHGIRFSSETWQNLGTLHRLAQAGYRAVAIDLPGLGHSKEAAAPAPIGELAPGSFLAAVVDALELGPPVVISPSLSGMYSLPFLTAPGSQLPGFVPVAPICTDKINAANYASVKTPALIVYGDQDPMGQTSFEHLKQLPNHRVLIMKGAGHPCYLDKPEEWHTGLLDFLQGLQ
# Sequence of UniProt P62694 (whole entry, looked up): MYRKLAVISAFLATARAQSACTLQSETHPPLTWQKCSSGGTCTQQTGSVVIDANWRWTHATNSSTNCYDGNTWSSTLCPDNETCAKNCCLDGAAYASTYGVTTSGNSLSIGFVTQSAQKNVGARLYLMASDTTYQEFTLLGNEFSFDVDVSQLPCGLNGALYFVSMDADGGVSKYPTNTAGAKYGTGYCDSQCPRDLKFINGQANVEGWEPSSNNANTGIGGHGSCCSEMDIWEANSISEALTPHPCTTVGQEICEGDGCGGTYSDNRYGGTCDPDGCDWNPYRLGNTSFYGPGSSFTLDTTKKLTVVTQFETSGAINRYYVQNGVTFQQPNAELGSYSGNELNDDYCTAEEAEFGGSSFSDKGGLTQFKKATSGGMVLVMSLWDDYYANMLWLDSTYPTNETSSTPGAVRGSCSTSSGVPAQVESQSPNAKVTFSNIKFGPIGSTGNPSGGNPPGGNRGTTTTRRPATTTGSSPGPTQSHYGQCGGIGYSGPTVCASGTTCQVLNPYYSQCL
Substance,substrate,conditions,Km [µM]
B1 (enzyme D254A),C[S+](CC[C@H](N)C(=O)O)C[C@H]1O[C@@H](n2cnc3c(N)ncnc32)[C@H](O)[C@@H]1O,"pH 7.5, 50 °C, apparent",26
B2 (PRODH2 157-515),O=C(O)[C@@H]1C[C@@H](O)CN1,"pH 7.5, 25 °C, with: O2",28000
B3 (enzyme),CC(C)=C[C@@H]1[C@@H](C(=O)SCCn2ccnc2)C1(C)C,"pH 7.5, 25 °C",107
B4 (Paox H64Q),c1ccc(CNCCCCNCc2ccccc2)cc1,"pH 8.6, 30 °C",130
"cbh1 (Trichoderma reesei, UniProt P62694)",[H][C@@]1(O[C@H]2[C@H](O)[C@@H](O)[C@H](Oc3ccc([N+](=O)[O-])cc3)O[C@@H]2CO)O[C@H](CO)[C@H](O)[C@H](O)[C@H]1O,"pH 5, 25 °C, apparent",590
"Ptb (Listeria monocytogenes, UniProt Q8Y7B7)",CCCCC(=O)SCCNC(=O)CCNC(=O)[C@H](O)C(C)(C)COP(=O)(O)OP(=O)(O)OC[C@H]1O[C@@H](n2cnc3c(N)ncnc32)[C@H](O)[C@@H]1OP(=O)(O)O,"pH 7.5, 25 °C, apparent",161
"ABHD14B (Homo sapiens, UniProt Q96IU4)",CC(=O)Oc1ccc([N+](=O)[O-])cc1,"pH 8, 37 °C",1800
B5 (YdjH),O=C(CO)[C@@H](O)[C@H](O)[C@H](O)[C@@H](O)CO,"pH 7.4, 30 °C, KCl 100 mM, with: ATP 2.0 mM, MgCl2 5.0 mM",14500
B6 (enzyme),O=C(O)COc1nc2ccccc2s1,"pH 8.6, 25 °C",565
B7 (YeiR),Nc1nc2c(ncn2[C@@H]2O[C@H](COP(=O)(O)OP(=O)(O)OP(=O)(O)O)[C@@H](O)[C@H]2O)c(=O)[nH]1,"pH 7.5, 37 °C, apo, anaerobic",220
"ADE5,7 (Cryptococcus neoformans, UniProt J9VYP5)",NCC(=O)O,"pH 8, 37 °C, apparent",496
